Results from different studies.
Protocols differ between the studies behind these lines. “And” joins repeats or separate records; there may be more than shown. ± marks the error that the study gave.

N#Cc1ccc2c(-c3ccncc3)c(-c3ccc(F)cc3)nn2c1 — log2 fold change (kinase binding, competitor, MIB/MS competition, measured: CKA2; Candida albicans cell lysate; 1 µM; reference: DMSO): 0.346
Cc1cc(C)c(CNC(=O)c2cc(Cl)c3c(c2C)O[C@@](C)([C@H]2CC[C@H](N(C)C)CC2)O3)c(=O)[nH]1 — best overall response PR (IWG 2007 criteria; human, relapsed/refractory PTCL not otherwise specified; dose not given): 23%
NC(=O)c1cnc2[nH]ccc2c1N[C@@H]1[C@@H]2CC3C[C@H]1C[C@@](O)(C3)C2 — change from baseline (flow cytometry, measured: CD4+ naive T cells; Japanese healthy subjects, peripheral blood; oral, 10 mg twice daily, day 4): -1.47%
CCCN1CCCC[C@H]1C(=O)Nc1c(C)cccc1C — sensory block duration (Sprague-Dawley rat, female; sciatic nerve injection, 15 mM): 160 ± 14.9 min
C[C@H](Oc1ccc(Br)cc1-c1ccon1)C(=O)O — difference from placebo (muscle velocity recovery cycle; human, tibialis anterior muscle; 200 mg once daily, last response peak at 30 Hz, multiple ascending dose): 15%
COc1ncc(-c2nc3c(n2C(C)C)[C@H](c2ccc(Cl)cc2)N(c2cc(Cl)cn(C)c2=O)C3=O)c(OC)n1 — best overall response (International Working Group criteria; human acute myeloid leukemia patients; oral, 120 mg, response CRi, high-dose, recommended dose for expansion): 0%
O=C(O)COCCN1CCN(C(c2ccccc2)c2ccc(Cl)cc2)CC1 (stereo not shown) — inhibition (paw oedema; mouse; intraperitoneal, 10 mg/kg, 1 h, with: histamine): 71.6%
CN(C(=O)n1cnc(-c2ccc[n+]([O-])c2)c1)C1CCCCC1 — AUC(0-t) (measured: OEA; human, plasma; 20 mg single dose): 791 ng·h/mL
Cc1n[nH]c2ccc(-c3cc(OC[C@@H](N)Cc4ccccc4)cnc3-c3ccoc3)cc12 — log2 fold change (kinase binding, competitor, MIB/MS competition, measured: RTK1; Candida albicans cell lysate; 10 µM; reference: DMSO): -1.04
C[C@@H](NC(=O)N1C(=O)[C@H](Cc2ccnc(N)c2)[C@H]1C(=O)O)C1CCCCC1 — PT Emax (human; iv infusion, 0.6 mg/kg/h, 24 h, unit not given; reference: baseline): 1.05
C=Cc1c(C)c2cc3nc(c(CC(=O)O)c4[nH]c(cc5nc(cc1[nH]2)C(C)=C5CC)c(C)c4C(=O)O)[C@@H](CCC(=O)O)[C@@H]3C — PD-L1 positive cells (flow cytometry; mice, 4T1 tumour-bearing; dose not given, 1 h): 1.92%
O=C(NC[C@H]1CN(c2ccc(N3CCOCC3=O)cc2)C(=O)O1)c1ccc(Cl)s1 — prothrombin time AUC(0-48h) (human moderate renal impairment, plasma; 10 mg, mean, unit not given; reference: baseline): 70.4
C[C@H]1O[C@@H](O[C@H]2CC[C@@]3(C)[C@@H](CC[C@]4(C)[C@@H]3C=C[C@]35OC[C@@]6(CCC(C)(C)C[C@H]63)[C@@H](O)C[C@]54C)[C@]2(C)CO)[C@H](O)[C@@H](O[C@@H]2O[C@H](CO)[C@@H](O)[C@H](O)[C@H]2O)[C@H]1O — protein level (Western blot, measured: PGC-1α; chronic-plus-binge ethanol-fed mice, liver; dose not given, dose level -M, unit not given; reference: β-actin): 1.09 and 0.81 and 1.29
C[C@H]1C[C@H]2CSC(N)=N[C@@]2(c2nc(NC(=O)c3ccc(OC(F)F)cn3)cs2)CO1 — percent change from baseline (measured: Aβ1-40; healthy adults, plasma; 15 mg once daily, day 4; reference: placebo): -67.1%
CC(C)[C@H](NC(=O)[C@H](Cc1ccc(O)cc1)NC(=O)[C@H](Cc1ccc(O)cc1)NC(=O)[C@@H]1CCCN1C(=O)[C@H](CCC(=O)O)NC(=O)[C@H](CCC(=O)O)NC(=O)[C@H](Cc1c[nH]c2ccccc12)NC(=O)[C@@H]1CCCN1C(=O)[C@@H](NC(=O)[C@H](CCC(N)=O)NC(=O)c1ccc2c(c1)C(=O)OC21c2ccc(O)cc2Oc2cc(O)ccc21)C(C)C)C(=O)N[C@H](C(=O)N[C@@H](CCCCN)C(=O)N[C@@H](CCCCN)C(=O)N[C@@H](CO)C(=O)N[C@@H](CO)C(=O)NCC(=O)NCC(N)=O)C(C)C — share of responses (nerve branching; human head and neck surgery, nerves; 500 mg, very much improved; reference: white light): 7.7%
CCOc1cc([C@@H](CS(C)(=O)=O)N2C(=O)c3cccc(NC(C)=O)c3C2=O)ccc1OC — ear thickness difference (Balb/c mice, oxazolone atopic dermatitis; day 17, unit not given; reference: vehicle): -0.132
CCCCC1(CCCC)CN(c2ccccc2)c2cc(SC)c(OCC(=O)N[C@@H](C(=O)NCC(=O)O)c3ccccc3)cc2S(=O)(=O)C1 — plasma C4 (measured: 7α-hydroxy-4-cholesten-3-one; human, plasma; 20 mg once daily, day 2): 45.7 ng/mL
COc1cc2cc(-c3ccc(CC(=O)Nc4cc(C(C)(C)C(F)(F)F)no4)cn3)cnc2cc1OC — best overall response PD (RECIST v1.1; human RET-altered solid tumours; 12 75 mg tablets, phase I): 17%
Oc1ccc(Br)cc1C=NCCN1CCOCC1 — inhibition (nitric oxide scavenging; 120 µM): 18.6%
O=C(O)CNC(=O)Cc1ccccc1 — sarcomere length (ventricular cardiomyocytes, C57BL/6 mouse; dose not given, 0.432 s): 1.72 µm
CSCCNc1nc(SCCC(F)(F)F)nc2c1ncn2[C@@H]1O[C@H](COP(=O)(O)OP(=O)(O)C(Cl)(Cl)P(=O)(O)O)[C@@H](O)[C@H]1O — patients with high reactivity (ADP-induced platelet aggregation, LTA, >59% aggregation; human patients, platelet-rich plasma; dose not given, 4 to 6 h, with: ADP 20 µM): 68.4%
CC(C)NCC(O)c1ccc(O)c(O)c1 (stereo not shown) — sarcomere length (ventricular cardiomyocytes, C57BL/6 mouse; dose not given, 0.604 s): 1.68 µm
O=C(OC(C(F)(F)F)C(F)(F)F)N1CCN(Cc2cccc(Oc3ccccc3)c2)CC1 — tracer distribution volume (PET; rhesus monkey, cerebellum; intravenous, 0.1 mg/kg, pretreatment, with: [18F]T-401): 4.97 mL/cm3
OC(CCN1CCCCC1)(c1ccccc1)C1CC2C=CC1C2 (stereo not shown) — change, Gamma power, EEG Pz-O1 (resting-state EEG; healthy elderly humans; oral, 2 mg, eyes open, LS mean; reference: baseline): 0.6%
N#CC[C@H](C1CCCC1)n1cc(-c2ncnc3[nH]ccc23)cn1 — ear thickness difference (Balb/c mice, oxazolone atopic dermatitis; day 23, unit not given; reference: vehicle): -0.154
Cc1oncc1C(=O)Nc1ccc(C(F)(F)F)cc1 — DHO concentration (measured: dihydroorotate; female CD-1 mice, pooled urine; oral, 30 mg/kg daily, 8-24 h after dose 10): 20800 ± 2480 µM
N#Cc1ccc2c(c1)[C@H]1CCCN(C(=O)c3ccc4[nH]cnc4c3)[C@H]1C2 — change from baseline (measured: androstenedione; human female, Phase II trial; oral, 20 mg once daily, HPA axis, mean): 0.45 nmol/L
c1ccc(-c2n[nH]cc2-c2ccnc3ccccc23)nc1 — log2 fold change (kinase binding, competitor, MIB/MS competition, measured: SAK1; Candida albicans cell lysate; 1 µM; reference: DMSO): 1.33
COc1ccc2c(c1)CN(C(=O)CCN1CCC(Cc3ccccc3)CC1)CC[S@@+]2[O-] — atrial ERP prolongation (anaesthetised Beagle dogs; intravenous, 0.1 mg/kg, pacing cycle length 250 ms): 38%
N#Cc1ccn2c(-c3ccncc3)c(-c3ccc(F)cc3)nc2c1 — log2 fold change (kinase binding, competitor, MIB/MS competition, measured: RIO2; Candida albicans cell lysate; 1 µM; reference: DMSO): -0.0797
NC/C(=C\F)COc1cccc(Cn2c(=S)[nH]c(=O)c3[nH]cnc32)c1 — exudate volume (Mus musculus, carrageenan air pouch exudate; 3 mg/kg, 12 h, λ-carrageenan-induced oedema): 3.5 mL and 3.9 mL and 3 mL and 3.4 mL and 3.6 mL
C[C@@H](O)CCOC(=O)C[C@@H](C)O — metabolite level (measured: Ser; human, plasma; 60 min, log2-transformed values): 6.55 ± 0.27 µmol/L
Cc1ccc(C(=O)OCc2ccc([C@@H](CN)C(=O)Nc3ccc4cnccc4c3)cc2)c(C)c1 — IOP (tonometry; NZW rabbit, magnetic bead-induced ocular hypertension; ocular, 0.02%, 2 h): 34.2 mmHg
CCCCC1(CCCC)CN(c2ccccc2)c2cc(SC)c(OCC(=O)N[C@@H](C(=O)NCC(=O)O)c3ccccc3)cc2S(=O)(=O)C1 — Fxr mRNA level (qPCR; male mice, ileum; 1 mg/kg, after mixed meal tolerance test; reference: PBS): no effect

Repeated from above:
C[C@@H](O)CCOC(=O)C[C@@H](C)O — metabolite level (measured: Ser; human, plasma; 60 min, log2-transformed values): 6.55 ± 0.27 µmol/L
CCOc1cc([C@@H](CS(C)(=O)=O)N2C(=O)c3cccc(NC(C)=O)c3C2=O)ccc1OC — ear thickness difference (Balb/c mice, oxazolone atopic dermatitis; day 17, unit not given; reference: vehicle): -0.132
CCCCC1(CCCC)CN(c2ccccc2)c2cc(SC)c(OCC(=O)N[C@@H](C(=O)NCC(=O)O)c3ccccc3)cc2S(=O)(=O)C1 — plasma C4 (measured: 7α-hydroxy-4-cholesten-3-one; human, plasma; 20 mg once daily, day 2): 45.7 ng/mL
COc1cc2cc(-c3ccc(CC(=O)Nc4cc(C(C)(C)C(F)(F)F)no4)cn3)cnc2cc1OC — best overall response PD (RECIST v1.1; human RET-altered solid tumours; 12 75 mg tablets, phase I): 17%
